Results collected from several papers.
Protocols differ between the studies behind these lines. ± gives the spread as reported.
Cell line: MCF7

CC(Cc1ccc(Cl)cc1)=C(c1ccc(Cl)cc1)c1ccc(OCCN(C)C)cc1  inhibition (cell growth or viability; 10 µM): 89%
COc1cc(/C=C/c2cc(C)n[nH]2)ccc1O  GSH/GSSG ratio increase (25 µM, 48 h; reference: untreated): ~7 fold
C[n+]1c(/C=C/c2ccc(N(c3ccccc3)c3ccccc3)cc2)cc(/C=C2\Sc3ccccc3N2CCCN2CCCC2)c2ccccc21  mRNA level (qRT-PCR, refers to: hTERC; concentration not given, 36 h): decreased
NS(=O)(=O)c1ccc(/N=N/c2ccc(O)c(/C=N/c3cc([N+](=O)[O-])ccc3O)c2)cc1  selectivity index (MTT; 48 h; reference: MCF10A IC50 over MCF7 IC50): 1.49
COc1cccc2c1C(=O)c1c(O)c3c(c(O)c1C2=O)C[C@@](O)(C(=O)CO)C[C@@H]3O[C@H]1C[C@H](N)[C@H](O)[C@H](C)O1  intracellular ROS level (DCFDA fluorescence; concentration not given, 4 h; reference: DMSO): increased
COc1ccc(CC(C)=C(c2ccc(Cl)cc2)c2ccc(OCCCN(C)C)cc2)cc1  inhibition (cell growth or viability; 10 µM): 83.8%
FC(F)(F)c1cnc2[nH]cc(Cc3cccc(Cl)c3)c2c1  inhibition (cell growth or viability; 10 µM, 72 h): 29%
CCCCCCCCCCCCCCCC(=O)N[C@@H](Cc1c[nH]cn1)C(=O)N[C@@H](CCCNC(=N)N)C(=O)N[C@@H](CCCCN)C(=O)N[C@@H](CCCNC(=N)N)C(=O)N[C@@H](CC(N)=O)C(=O)N[C@@H](CC(N)=O)C(=O)N[C@@H](CO)C(=O)N[C@@H](CCCNC(=N)N)C(=O)N[C@@H](CC(C)C)C(=O)NCC(=O)N[C@@H](CC(N)=O)C(=O)NCC(=O)N[C@H](C(=O)N[C@@H](CC(C)C)C(=O)N[C@@H](Cc1ccc(O)cc1)C(=O)N[C@@H](C)C(=O)N[C@@H](CO)C(=O)N[C@H](C(=O)N[C@@H](CC(N)=O)C(N)=O)C(C)C)C(C)C  TGI (48 h, 1% FBS): 1.55 ± 0.1 µM
N=C(N)NCCC[C@H](NC(=O)[C@H](Cc1c[nH]c2ccccc12)NC(=O)[C@H](CCC(N)=O)NC(=O)[C@H](Cc1c[nH]c2ccccc12)NC(=O)[C@H](CCCNC(=N)N)NC(=O)[C@H](Cc1c[nH]c2ccccc12)NC(=O)[C@H](CCC(N)=O)NC(=O)[C@H](Cc1c[nH]c2ccccc12)NC(=O)[C@@H](N)CCCNC(=N)N)C(N)=O  selectivity ratio (reference: fibroblast IC50 over MCF7 IC50): > 1.7
COc1ccc(-c2nnc(-c3cc(-c4ccccc4)n(-c4ccc(S(N)(=O)=O)cc4)n3)o2)cc1  mRNA level (real-time PCR, refers to: caspase-7; concentration not given; reference: untreated cells): 4.8 fold
FC(F)(F)C1(c2ccc(CN3CCN(C(c4ccccc4)c4ccc(Cl)cc4)CC3)cc2)CCC1 (centres unmarked)  EC50 (72 h): 15 µM
CCCc1cc(O)nc(SCCOC(=O)[C@]2(C)CCC[C@]3(C)c4ccc(C(C)C)cc4CCC23)n1 (some centres unmarked)  S-phase cells (PI flow cytometry; 15 µM, 48 h): 40.7%
COc1ccc(NC(=O)CCc2nc3cc(Cl)ccc3[nH]c2=O)cc1  selectivity index (MTT; reference: WI-38 IC50 over MCF7 IC50): 19.2
CCC(=C(c1ccc(Cl)cc1)c1ccc(OCCN2CCOCC2)cc1)c1ccc(Cl)cc1  inhibition (cell growth or viability; 10 µM): 24.8%
CC(=O)OC[C@H]1O[C@@H](Sc2sc(C(=O)c3ccc(C)cc3)c(N)c2-c2nc3ccccc3s2)[C@H](OC(C)=O)[C@@H](OC(C)=O)[C@H]1OC(C)=O  growth (SRB; 10 µM, 48 h; reference: untreated): 100%
CN1CCC2(CC1)C/C(=N\NC(=O)Nc1ccccc1)c1ccccc1O2  apoptotic cells (annexin V-FITC/PI; concentration not given, 24 h, Total apoptosis): 36.2%
CN(C)c1ccc(/C=C/c2cc(/C=C3\Sc4ccccc4N3CCCN3CCCC3)c3ccccc3[n+]2C)cc1  hTERT protein level (Western blot; concentration not given, 36 h): decreased
CCC[C@@H]1O[C@@H](Oc2c(-c3ccc(O)cc3)oc3cc(O)cc(O)c3c2=O)[C@H](OC(C)=O)[C@H](OC(C)=O)[C@H]1NC(C)=O  S6 phosphorylation (inhibitor, immunoblot, refers to: phospho-S6; 25 and 50 µM, added: PMA): no effect
CN1CCN(c2ccc(C(=O)/C=C/Nc3ccc(S(N)(=O)=O)cc3)cc2)CC1  cells in %G2/M phase (PI flow cytometry; IC50 concentration, 24 h): 23.5%
NS(=O)(=O)c1ccc(/N=N/c2ccc(O)c(C=O)c2)cc1  selectivity index (MTT; 72 h; reference: MCF10A IC50 over MCF7 IC50): 3.47
COc1ccc(NC(=O)C2C(=O)C(c3ccccc3)c3ccc4c(c32)C(=O)c2ccccc2C4=O)cc1 (centres unmarked)  TGI (cell growth or viability): 45.3 µM
N=C(N)NCCC[C@H](NC(=O)[C@H](Cc1c[nH]c2ccccc12)NC(=O)[C@H](CCC(N)=O)NC(=O)[C@H](Cc1c[nH]c2ccccc12)NC(=O)[C@H](CCCNC(=N)N)NC(=O)[C@H](Cc1c[nH]c2ccccc12)NC(=O)[C@H](CCC(N)=O)NC(=O)[C@@H](N)Cc1c[nH]c2ccccc12)C(N)=O  selectivity ratio (reference: MCF-12 IC50 over MCF7 IC50): > 1.1
O=C1c2c(O)cc(O)cc2-c2c(-c3ccc(O)cc3)oc3cc(O)cc1c23  shared downregulated proteins (label-free MS proteomics; concentration not given; reference: tanespimycin downregulated proteins): 29%
COc1ccc(/C=C/C(=O)c2ccc(NC(=O)c3ccccc3CN3C(=O)c4ccccc4C3=O)cc2)c(OC)c1  necrotic cells (annexin V/PI staining; IC50, 24 h; reference: untreated): 2.76 fold
NS(=O)(=O)c1ccc(/N=N/c2ccc(O)c(/C=N/CCc3c[nH]c4ccccc34)c2)cc1  selectivity index (MTT; 48 h; reference: MCF10A IC50 over MCF7 IC50): 1.15
CC(=C(c1ccc(Cl)cc1)c1ccc(OCCCN(C)C)cc1)c1ccc(Cl)cc1  inhibition (cell growth or viability; 10 µM): 65.7%
CC/C=C\C/C=C\C/C=C\C/C=C\C/C=C\C/C=C\CCC(=O)Nc1ccn(C2OC(CO)C(O)C2(F)F)c(=O)n1 (centres unmarked)  total growth inhibition concentration: 13.4 µM
OC(c1cccc(OC(F)(F)F)c1)c1c[nH]c2ncc(C(F)(F)F)cc12 (centres unmarked)  inhibition (cell growth or viability; 10 µM, 72 h): 21%
CCCCCCCCCC1N=C(N)N=C(N)N1c1ccc(Cl)cc1.Cl (racemic)  growth inhibition (concentration not given): ≤ 100%
O=C(CCc1nc2cc(Cl)ccc2[nH]c1=O)Nc1ccc(O)cc1  selectivity index (MTT; reference: WI-38 IC50 over MCF7 IC50): 23.9
O=C(O)C=Cc1ccc(C(=C2C3CCCC2CCC3)c2ccc(O)cc2)cc1  PR mRNA level (antagonist, real-time PCR; 1 µM, added: 1 nM estradiol): inhibited
CC1(C)CC2C3=CCC4C5(C)CCC(O)C(C)(CO)C5CCC4(C)C3(C)CC(O)C2(CO)C(O)C1O (centres unmarked)  growth inhibition (CCK-8; up to 80 µM): inactive
C[C@]12CC[C@@H]3c4ccc(OCC(=O)N[C@@H](CCCCNC(=O)CN5CCN(CC(=O)[O-])CCN(CC(=O)[O-])CCN(CC(=O)[O-])CC5)C(=O)O)cc4CC[C@H]3[C@@H]1CCC2=O.[177Lu+3]  internalization (60 min, 37 °C, acid wash pH 5.0; reference: cell-bound activity): 20%
CCS(=O)(=O)Oc1cc(/C=N/NC(=O)c2nc3ccccc3s2)ccc1OC  G2/M phase cells (concentration not given, 24 h): 18.3%
CC(=NNC(=S)NN=C(C(=NO)c1ccccc1)c1ccccc1)c1ccccc1  relative protein level (Western blot, refers to: iNOS; IC50 concentration, 24 h; reference: untreated): 0.76 ± 0.07
